# Results of several laboratories.
# Lines come from different studies, so protocols differ. ± marks the error that the study gave.
SMILES,tested on,test,test system,setting,how to read,quantity,value
Cn1cc(-c2ccc(-c3cncc(Cl)c3N3CCC4(CCNC4=O)CC3)cc2)cn1,COLO 205,"gene expression, microarray, item: CDKN1A mRNA",,"concentration not given, 6 h",relative to: untreated cells,log2 fold change,2.98
O=C(O)CNC(=O)Cc1ccccc1,,,"ventricular cardiomyocytes, C57BL/6 mouse","dose not given, 0.196 s",,sarcomere length,1.62 µm
Cc1cc(O)c2c(c1)C(=O)c1cc(O)cc(O)c1C2=O,HepaRG co-cultured with HK-2,MTT,,"266.67 µM, 24 h",relative to: untreated control,cell viability,34.3 ± 3.68%
COc1ccc(Cn2ccc3ccc(C(=O)NO)cc32)cc1,OCI-Ly1,,,"0.5 µM, 120 h",,viability,85.6%
Oc1ccccc1-c1n[nH]cc1-c1ccnc2ccccc12,YPK1 (Candida albicans),"kinase binding, MIB/MS competition",Candida albicans lysate,1 µM,relative to: DMSO,log2 fold change,-0.06
COc1cccc(-c2ccc(NC(=O)C3=C(C(=O)O)CCC3)c(F)c2)c1,COS-7,,,"3 µM, 24 h, 0.1% DMSO, unit not given",relative to: vehicle control,necrotic cells,0.73 ± 0.19
CC(C)N(CCCNC(=O)Nc1ccc(C(C)(C)C)cc1)C[C@H]1O[C@@H](n2cc(Br)c3c(N)ncnc32)[C@H](O)[C@@H]1O,OCI-Ly1,,,"0.5 µM, 120 h",,viability,118%
c1coc(-c2n[nH]cc2-c2ccnc3ccccc23)c1,KIN28 (Candida albicans),"kinase binding, MIB/MS competition",Candida albicans lysate,10 µM,relative to: DMSO,log2 fold change,-0.34
O=C1CCc2c(ccc3ccccc23)O1,OCI-Ly1,,,"1 µM, 120 h",,viability,148%
O=C(Nc1cc(OCCN2CCCC2)c2ccccc2n1)c1cc(OCc2ccc(F)cc2)cc(C(=O)Nc2cc(OCCN3CCCC3)c3ccccc3n2)n1,double-stranded DNA,FRET melting,,"1 µM, pH 7.4, 60 mM potassium, together with: oligonucleotide 200 nM",,delta Tm,0 ± 0.2 K
C=C1C(=O)O[C@@H]2C[C@@]3(C)CCCC(=C)[C@@H]3C[C@H]12,COS-7,WST-8,,"10 µM, 24 h, 0.1% DMSO, unit not given",relative to: vehicle control,metabolic activity,0.91 ± 0.04
NC(=O)c1cnc2[nH]ccc2c1N[C@@H]1[C@@H]2CC3C[C@H]1C[C@@](O)(C3)C2,,"flow cytometry, item: CD4+ effector T cells","Japanese healthy subjects, peripheral blood","oral, 10 mg twice daily, day 7",,change from baseline,0.12%
O=C(O)CNC(=O)C(=O)O,OCI-Ly1,,,"0.5 µM, 120 h",,viability,157%
NCCCOc1cc(NC(=O)c2cccc(C(=O)Nc3cc(OCCCN)c4ccccc4n3)n2)nc2ccccc12,c-kit2 G-quadruplex DNA,FRET melting,,"1 µM, pH 7.4, together with: 60 mM potassium",,ΔTm,9.7 ± 0.5 K
O=C(/C=C/C=C/C=C/C1CCCCC1)NC1=C[C@@](O)(/C=C/C=C/C=C/C(=O)NC2=C(O)CCC2=O)[C@@H]2O[C@@H]2C1=O,NCI-H2172,"cell growth, CellTiter-Glo",,78 h,,GI50,25.9 µM
NCCOc1cc(NC(=O)c2cccc(C(=O)Nc3cc(OCCN)c4ccccc4n3)n2)nc2ccccc12,human telomeric G-quadruplex DNA,FRET melting,,"1 µM, pH 7.4, together with: 60 mM potassium",,ΔTm,28.4 ± 0.8 K
O=C(O)c1cc(O)c2c(c1)C(=O)c1cccc(O)c1C2=O,HepaRG co-cultured with HK-2,MTT,,"33.33 µM, 48 h",relative to: untreated control,cell viability,66.7 ± 10.1%
